Results from different studies.
± marks the error that the study gave.

| SMILES | target | test | system | setting | how to read | quantity | value |
| --- | --- | --- | --- | --- | --- | --- | --- |
| CCN1CCN(Cc2ccc(NC(=O)c3ccc(C)c(NC(=O)c4cncc(-c5cnn(C)c5)c4)c3)cc2C(F)(F)F)CC1 | SRC family kinases | inhibitor, Western blot | NCI-H2286 and HCC366 | 0.5 µM, 3 h |  | phosphorylation | inhibited |
| Cc1cccc(C)c1NC(=O)c1cc(-c2cccc(O)c2)on1 | mitochondrial permeability transition pore, mouse | mitochondrial swelling inhibition | isolated mouse liver mitochondria | together with: Ca2+ |  | EC50 | 12.1 ± 1.4 nM |
| Cc1sc2ncn(CC(=O)N3CCCC3)c(=O)c2c1-c1cccc(Br)c1 | NMDA receptor, mouse | single-channel current, outside-out patch | cortical neurons | 50 µM, together with: Ca2+ 0.5 mM |  | γ1 conductance level area | 67% |
| C[n+]1ccc(/C=N/NC(=O)c2cccc(C(=O)N/N=C/c3cc[n+](C)c4ccccc34)n2)c2ccccc21 | G-quadruplex DNA 22CTA antiparallel | UV melting |  | 6 µM, K10 buffer, together with: DNA 3 µM |  | delta Tm | 37 °C |
| COc1ccc2c(Cl)c(C(N)=O)sc2n1 | none | weak affinity chromatography-MS | ethanolamine reference column |  |  | adjusted retention time | 7.39 min |
| O=C(O)C1OC(OC2C(COS(=O)(=O)O)OC(OC3C(C(=O)O)OC(OC4C(COS(=O)(=O)O)OC(OC5C(C(=O)O)OC(OC6C(COS(=O)(=O)O)OC(OC7C(C(=O)O)OC(OC8C(COS(=O)(=O)O)OC(OC9C(C(=O)O)OC(OC%10C(COS(=O)(=O)O)OC(OC%11C(C(=O)O)OC(Oc%12ccc([N+](=O)[O-])cc%12)C(O)C%11O)C(NS(=O)(=O)O)C%10O)C(OS(=O)(=O)O)C9O)C(NS(=O)(=O)O)C8O)C(OS(=O)(=O)O)C7O)C(NS(=O)(=O)O)C6OS(=O)(=O)O)C(OS(=O)(=O)O)C5O)C(NS(=O)(=O)O)C4O)C(OS(=O)(=O)O)C3O)C(NS(=O)(=O)O)C2OS(=O)(=O)O)C(O)C(O)C1OC1OC(COS(=O)(=O)O)C(O)C(O)C1NS(=O)(=O)O (stereo not shown) | human factor Xa | anti-factor Xa activity, chromogenic | human plasma |  |  | IC50 | 0.067 mg/L |
| C=C(F)C(=O)Nc1cnn2ccc(-c3ccc(C4CCCCC4)cc3)nc12 | YAP-TEAD4 | reporter gene | HEK-293T Gal4-TEAD4 UAS-luciferase | 20 µM, 24 h |  | inhibition | 96% |
| O=C(CCl)Sc1nnc(-c2n[nH]c(=O)c3ccccc23)o1 | p38 MAPK | ELISA | HepG2 | IC50, 8 h | reference: untreated | protein level reduction | 82% |
| O=C1Nc2ccc(-c3ccc4cc(O)ccc4c3)cc2/C1=C/c1ccc(N2CCNCC2)cc1 | FGFR3 |  |  |  | reference: IC50 FGFR3 over lowest IC50 | selectivity ratio | 1 |
| CC1OC(Oc2c(-c3ccc(O)cc3)oc3cc(O)cc(O)c3c2=O)C(OC(=O)C=Cc2ccc(O)cc2)C(O)C1OC(=O)C=Cc1ccc(O)cc1 (stereo not shown) | CCR2 | macrophage infiltration | mouse, thioglycollate peritonitis, peritoneum | intraperitoneal, 100 mg/kg |  | inhibition | 87% |
| Cc1ncc(Cl)cc1NC(=O)c1cc(-c2ccc(F)c(O)c2)on1 | mitochondrial permeability transition pore (mouse) | Ca2+-induced mitochondrial swelling | isolated mouse liver mitochondria |  |  | EC50 | 16 nM |
| C[C@@H](N)C1CCN(S(=O)(=O)c2cccc3c(=O)[nH]ccc23)CC1 | ROCK | MLC2 phosphorylation, inhibitor | HUVEC | 50 µM, 1 h then washout, together with: LPA |  | duration of action | ≥ 4 h |
| CC(=O)N[C@@H](Cc1ccc(O)cc1)CN(CC(=O)N[C@@H](CCCCN)CN(CC(=O)N[C@@H](Cc1ccccc1)CN(CC(=O)N[C@H]1CCCCNc2c(F)c(F)c(c(F)c2F)S(=O)(=O)c2c(F)c(F)c(c(F)c2F)NCCCC[C@@H](CN(CC(=O)N[C@@H](C)CN(CC(N)=O)S(C)(=O)=O)S(C)(=O)=O)NC(=O)CN(S(C)(=O)=O)C[C@H](CC(C)C)NC(=O)CN(S(=O)(=O)CCN)C1)S(=O)(=O)CC(C)C)S(=O)(=O)CCN)S(C)(=O)=O | CREB | reporter gene, inhibitor, CRE Renilla luciferase | HEK-293T | 30 min, together with: forskolin 10 µM for 5 h |  | IC50 | > 100000 nM |
| COc1ccc(-c2cc(C(=O)Nc3cccc(Cl)c3C)no2)cc1O | mitochondrial permeability transition pore, mouse | mitochondrial swelling inhibition | isolated mouse liver mitochondria | together with: Ca2+ |  | EC50 | 0.0283 ± 0.0048 nM |
| CC(=O)N[C@@H](Cc1ccc(O)cc1)CN(CC(=O)N[C@@H](CCCCN)CN(CC(=O)N[C@@H](Cc1ccccc1)CN(CC(=O)N[C@H]1CCCCNc2c(F)c(F)c(c(F)c2F)S(=O)(=O)c2c(F)c(F)c(c(F)c2F)NCCCC[C@@H](CN(CC(=O)N[C@@H](C)CN(CC(N)=O)S(C)(=O)=O)S(C)(=O)=O)NC(=O)CN(S(=O)(=O)c2ccc(Cl)cc2)C[C@H](CC(C)C)NC(=O)CN(S(=O)(=O)CCN)C1)S(=O)(=O)CC(C)C)S(=O)(=O)CCN)S(C)(=O)=O | CREB | reporter gene, inhibitor, CRE Renilla luciferase | HEK-293T | 30 min, together with: forskolin 10 µM for 5 h |  | IC50 | 72300 ± 44800 nM |
| O=C(N/N=C/c1cc[n+](Cc2ccccc2)c2ccccc12)N/N=C/c1cc[n+](Cc2ccccc2)c2ccccc12 | G-quadruplex DNA 22CTA antiparallel | FRET melting |  | 1 µM, K10 buffer, together with: DNA 0.2 µM |  | delta Tm | 11 to 14 °C |
| CC(=O)N[C@@H](Cc1ccc(O)cc1)CN(CC(=O)N[C@@H](CCCCN)CN(CC(=O)N[C@@H](Cc1ccccc1)CN(CC(=O)N[C@H]1CCCCNc2c(F)c(F)c(c(F)c2F)S(=O)(=O)c2c(F)c(F)c(c(F)c2F)NCCCC[C@@H](CN(CC(=O)N[C@@H](C)CN(CC(N)=O)S(C)(=O)=O)S(C)(=O)=O)NC(=O)CN(S(=O)(=O)CC(C)C)C[C@H](Cc2ccccc2)NC(=O)CN(S(=O)(=O)CCN)C1)S(=O)(=O)CC(C)C)S(=O)(=O)CCN)S(C)(=O)=O | CREB | reporter gene, inhibitor, CRE Renilla luciferase | HEK-293T | 30 min, together with: forskolin 10 µM for 5 h |  | IC50 | 18200 ± 2570 nM |
| CCCCCCCCCCCCCCCCn1cc[n+](Cc2ccccc2)c1C | none | hGrx1-roGFP2 reporter | Trypanosoma brucei brucei bloodstream | 2-fold EC50, 4 h, together with: menadione 250 µM, 20 min |  | biosensor reduction | 62% |
| COc1ccc2c(c1)c1c(C)c3cnccc3c(C)c1n2CCCN1CCN(C)CC1 | PDGFR-β NHE 41-mer G-quadruplex DNA | CD thermal melt |  |  | reference: wild type over R1 A-to-G mutant | ΔTm ratio | 3 fold |

Repeated from above:
| SMILES | target | test | system | setting | how to read | quantity | value |
| --- | --- | --- | --- | --- | --- | --- | --- |
| CC1OC(Oc2c(-c3ccc(O)cc3)oc3cc(O)cc(O)c3c2=O)C(OC(=O)C=Cc2ccc(O)cc2)C(O)C1OC(=O)C=Cc1ccc(O)cc1 (stereo not shown) | CCR2 | macrophage infiltration | mouse, thioglycollate peritonitis, peritoneum | intraperitoneal, 100 mg/kg |  | inhibition | 87% |
| Cc1ncc(Cl)cc1NC(=O)c1cc(-c2ccc(F)c(O)c2)on1 | mitochondrial permeability transition pore (mouse) | Ca2+-induced mitochondrial swelling | isolated mouse liver mitochondria |  |  | EC50 | 16 nM |
